# Measured values from different studies.
# Compare with care: the assays were run in different laboratories. Several values in a cell are separate wells, animals, samples, runs or records. ± marks the error that the study gave.
# prp N63Q: Ribosomal processing cysteine protease Prp (prp, Staphylococcus aureus, UniProt Q2FXS9, N63Q)
# Chain of UniProt P97612 (whole entry, looked up): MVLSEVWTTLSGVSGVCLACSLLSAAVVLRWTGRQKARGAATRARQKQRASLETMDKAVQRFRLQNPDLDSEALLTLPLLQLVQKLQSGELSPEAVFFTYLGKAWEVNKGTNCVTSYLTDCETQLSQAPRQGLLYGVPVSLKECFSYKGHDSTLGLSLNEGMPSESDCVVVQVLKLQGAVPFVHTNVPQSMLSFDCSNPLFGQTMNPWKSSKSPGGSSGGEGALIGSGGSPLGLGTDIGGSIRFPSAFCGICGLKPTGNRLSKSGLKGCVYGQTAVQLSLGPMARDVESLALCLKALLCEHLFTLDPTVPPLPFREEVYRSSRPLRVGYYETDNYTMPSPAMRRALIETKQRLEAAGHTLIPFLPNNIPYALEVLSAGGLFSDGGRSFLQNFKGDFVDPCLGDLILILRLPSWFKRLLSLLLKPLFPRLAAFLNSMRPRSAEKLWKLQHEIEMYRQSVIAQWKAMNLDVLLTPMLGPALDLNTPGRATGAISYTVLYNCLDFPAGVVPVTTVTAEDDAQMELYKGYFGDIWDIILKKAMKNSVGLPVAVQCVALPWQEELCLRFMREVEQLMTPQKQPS
# Chain of UniProt Q9NS75 (whole entry, looked up): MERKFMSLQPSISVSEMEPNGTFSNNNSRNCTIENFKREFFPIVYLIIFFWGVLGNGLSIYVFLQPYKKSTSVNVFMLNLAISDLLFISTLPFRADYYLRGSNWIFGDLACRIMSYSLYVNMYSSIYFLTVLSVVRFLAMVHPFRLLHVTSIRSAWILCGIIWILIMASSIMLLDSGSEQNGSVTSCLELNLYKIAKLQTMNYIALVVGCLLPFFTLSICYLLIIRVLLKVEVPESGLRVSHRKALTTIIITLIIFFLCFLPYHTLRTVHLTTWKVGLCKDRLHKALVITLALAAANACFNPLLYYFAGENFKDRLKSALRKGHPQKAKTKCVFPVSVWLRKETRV
# Chain of UniProt O15146 (whole entry, looked up): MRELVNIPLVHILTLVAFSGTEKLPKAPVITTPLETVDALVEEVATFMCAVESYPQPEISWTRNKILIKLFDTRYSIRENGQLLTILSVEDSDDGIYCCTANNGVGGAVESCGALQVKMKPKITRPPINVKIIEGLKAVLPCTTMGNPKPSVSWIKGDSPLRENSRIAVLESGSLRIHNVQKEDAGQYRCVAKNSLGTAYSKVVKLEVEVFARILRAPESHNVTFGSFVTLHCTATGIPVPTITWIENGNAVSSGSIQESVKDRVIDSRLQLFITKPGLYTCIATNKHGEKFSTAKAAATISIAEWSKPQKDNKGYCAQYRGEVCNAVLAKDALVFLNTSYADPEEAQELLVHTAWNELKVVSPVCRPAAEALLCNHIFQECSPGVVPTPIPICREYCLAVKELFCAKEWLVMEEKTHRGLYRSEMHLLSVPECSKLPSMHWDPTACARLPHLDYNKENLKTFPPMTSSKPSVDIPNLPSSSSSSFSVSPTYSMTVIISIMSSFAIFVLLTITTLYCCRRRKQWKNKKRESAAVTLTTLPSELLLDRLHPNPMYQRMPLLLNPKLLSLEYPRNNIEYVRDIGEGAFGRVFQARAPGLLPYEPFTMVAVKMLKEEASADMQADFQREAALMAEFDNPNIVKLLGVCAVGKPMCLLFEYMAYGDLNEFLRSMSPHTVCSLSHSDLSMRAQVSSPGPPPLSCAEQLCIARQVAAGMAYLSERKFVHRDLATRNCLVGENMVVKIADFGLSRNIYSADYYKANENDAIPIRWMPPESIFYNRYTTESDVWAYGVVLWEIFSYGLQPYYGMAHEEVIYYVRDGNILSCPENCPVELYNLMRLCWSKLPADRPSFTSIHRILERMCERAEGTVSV
# Chain of UniProt Q13557 (whole entry, looked up): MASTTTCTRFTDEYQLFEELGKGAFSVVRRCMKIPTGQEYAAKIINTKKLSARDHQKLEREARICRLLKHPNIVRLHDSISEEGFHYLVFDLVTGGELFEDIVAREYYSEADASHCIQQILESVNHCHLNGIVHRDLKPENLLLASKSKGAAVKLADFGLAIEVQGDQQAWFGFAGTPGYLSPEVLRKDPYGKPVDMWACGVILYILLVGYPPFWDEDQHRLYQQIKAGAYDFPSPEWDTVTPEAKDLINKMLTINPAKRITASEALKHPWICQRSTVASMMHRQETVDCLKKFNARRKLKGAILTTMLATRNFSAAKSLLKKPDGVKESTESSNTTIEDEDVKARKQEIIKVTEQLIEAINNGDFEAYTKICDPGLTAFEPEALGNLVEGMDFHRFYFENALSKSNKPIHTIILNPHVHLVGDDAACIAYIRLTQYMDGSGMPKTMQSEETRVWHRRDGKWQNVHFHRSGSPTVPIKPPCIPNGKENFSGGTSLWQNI
# Chain of UniProt P51451 (whole entry, looked up): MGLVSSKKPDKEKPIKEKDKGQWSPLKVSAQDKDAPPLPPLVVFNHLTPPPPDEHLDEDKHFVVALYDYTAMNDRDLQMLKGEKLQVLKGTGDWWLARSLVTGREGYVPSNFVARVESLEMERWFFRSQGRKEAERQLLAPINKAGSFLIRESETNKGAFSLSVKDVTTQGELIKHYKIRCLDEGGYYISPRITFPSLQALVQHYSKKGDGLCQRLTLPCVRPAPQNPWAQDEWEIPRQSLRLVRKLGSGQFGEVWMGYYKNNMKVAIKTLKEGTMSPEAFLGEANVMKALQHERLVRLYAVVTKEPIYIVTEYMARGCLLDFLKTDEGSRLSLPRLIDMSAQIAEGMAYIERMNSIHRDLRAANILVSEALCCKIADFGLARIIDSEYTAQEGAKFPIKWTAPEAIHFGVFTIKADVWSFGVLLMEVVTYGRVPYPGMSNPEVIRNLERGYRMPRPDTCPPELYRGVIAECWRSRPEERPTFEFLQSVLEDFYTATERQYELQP
Compound,target,assay,system,setting,inhibition
COc1c(-c2ccc3cc(NS(C)(=O)=O)ccc3c2)cc(-n2ccc(=O)[nH]c2=O)cc1C(C)(C)C,prp N63Q,"enzyme activity, inhibitor",,"10 µM, prp 21.4 nM, together with: FITC peptide substrate 0.5 µM",-45.3 ± 16.8%
COc1ccc(N2C(=O)N(c3c(C)cccc3Cl)Cc3cnc(Nc4ccc(C5CCN(C)CC5)cc4OC)nc32)nc1,"BLK (Homo sapiens, UniProt P51451)",kinase activity,,0.5 µM,91%
O=C(Nc1cccnn1)N1CCC(=Cc2cccc(Oc3ccc(C(F)(F)F)cn3)c2)CC1,"kainate receptor, rat",binding,,"10 µM, together with: [3H]kainic acid",20%
N=C(N)c1ccc2cc(OC(=O)c3ccc(N=C(N)N)cc3)ccc2c1,prp N63Q,"enzyme activity, inhibitor",,"10 µM, prp 21.4 nM, together with: FITC peptide substrate 0.5 µM",31.9 ± 16.8%
CN(C(=O)n1cnc(-c2ccc[n+]([O-])c2)c1)C1CCCCC1,"Faah (Rattus norvegicus, UniProt P97612)","probe labelling, inhibitor, competitive ABPP",rat brain soluble fraction,"10 µM, together with: azido-FP probe",30.8%
COC(=O)N[C@H](C(=O)N[C@@H](Cc1ccccc1)[C@@H](O)CN(Cc1ccc(-c2ccccn2)cc1)NC(=O)[C@@H](NC(=O)OC)C(C)(C)C)C(C)(C)C,prp N63Q,"enzyme activity, inhibitor",,"10 µM, prp 21.4 nM, together with: FITC peptide substrate 0.5 µM",33.6 ± 9.7%
CC(=O)NC[C@H]1[C@H](O)[C@H](O)[C@@H]2[C@H](O)C[C@@H](CO)N21,β-N-acetylglucosaminidase,"enzyme activity, inhibitor, colorimetric",Canavalia ensiformis,"5.15 nM, together with: p-nitrophenyl GlcNAc substrate",86.9% and 88.2%
COc1cc(Nc2ncc(F)c(Nc3ccc4c(n3)NC(=O)C(C)(C)O4)n2)cc(OC)c1OC,"MUSK (Homo sapiens, UniProt O15146)",KINOMEscan,,10 µM,99%
O=C(Nc1cnccc1Cl)N1CCN(Cc2ccc3c(c2)OC(F)(F)O3)CC1,"CAMK2D (Homo sapiens, UniProt Q13557)","enzyme activity, inhibitor",,"10 µM, together with: autocamtide-2",9%
CN1CCN(c2cc(-c3ccncc3)c(-c3ccc4ccccc4c3)nn2)CC1,"CYSLTR2 (Homo sapiens, UniProt Q9NS75)","antagonist, FLIPR",,10 µM,-20.1%

# Some of these lines once more:
Compound,target,assay,system,setting,inhibition
N=C(N)c1ccc2cc(OC(=O)c3ccc(N=C(N)N)cc3)ccc2c1,prp N63Q,"enzyme activity, inhibitor",,"10 µM, prp 21.4 nM, together with: FITC peptide substrate 0.5 µM",31.9 ± 16.8%
CN(C(=O)n1cnc(-c2ccc[n+]([O-])c2)c1)C1CCCCC1,"Faah (Rattus norvegicus, UniProt P97612)","probe labelling, inhibitor, competitive ABPP",rat brain soluble fraction,"10 µM, together with: azido-FP probe",30.8%
